Measurements of several laboratories.
Every numbered part comes from another study and shows a few of its results, in no order.

Study 1
Target: RNA binding protein fox-1 homolog 2, RRM domain, GST-SBP tag (RBFOX2, Homo sapiens, UniProt O43251-10, residues 100-194)
Method: RNA Bind-n-Seq
Form: RNA
Medium: in vitro
Tested at: 365 nM
Setting: natural RNA segment, single round, ends assumed
Relative to: no-protein control
Direction: higher = stronger binding
Construct (chain): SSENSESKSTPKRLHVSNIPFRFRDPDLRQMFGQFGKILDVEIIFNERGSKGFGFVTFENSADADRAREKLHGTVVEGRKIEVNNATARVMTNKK
Strand | RBNS enrichment (R)
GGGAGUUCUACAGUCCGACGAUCUUGAGUGUGAAUGCAGCAGGCUCUCUUGUUUCCGAGGUGCUGCUUUUGCAGGUGACCUGGUUACUUAGCUAGGAUUGGUGAUUUGUACUGCUUUAUGGUCAUUUGAAGGGUGGAAUUCUCGGGUGCCAA | 0.996
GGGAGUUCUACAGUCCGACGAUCACAACAGAAGACGAAGGUCGCUUAGGCGAUACCCAUGAAGAAUCCAAGUUUAUUUCCCUUUCCAGCGUACAAUGUGUCCCUUCCUGGUUUUUUGAAACACCUCUCACUGCUGGAAUUCUCGGGUGCCAA | 0.274
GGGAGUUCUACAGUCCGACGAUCGGCCUUGGGACUUCACAUCCCCCAGCACACAAGCCUCACCACCCCCUGCCAUCCCCCCUCCAUUGCUUGUUCCAGCAUCUUGGUGAAAGGGGCAUCAGCUCUGGUGUCCCUGGAAUUCUCGGGUGCCAA | 1.6
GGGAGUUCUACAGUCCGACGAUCGCCAAGCCCCCCUGACCCUCUCUCCCCACUACCACCUUCUUCCUGAGCUGGGGGCACCAGGGAGAAUCAGAGAUGCUGGGGAUGCCAGAGCAAGACUCAAAGAGGCAGAGUGGAAUUCUCGGGUGCCAA | 0.413
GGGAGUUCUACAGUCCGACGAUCGUGGCUUUGCUAGGAAUGCCAGAAGAAGGGUCAGCUUGACGUCUAUAGAUCUCCACUACACUCCAGAAGCCCAUCCCUAGUCUCCAAAGCCCUGCCUCUGGGCAACUCGCUGGAAUUCUCGGGUGCCAA | 2.56
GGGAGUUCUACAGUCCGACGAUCACGCCAGCCAGCCAGGCCGCAGCAGCAUCUGCCUCGAGGCUGCAGCUCCAGCCUGUAACCAGAUGUGGCCAGAUCCUGAGAGCCCACCCGUGUGACCAAACAGUGGAGAUUGGAAUUCUCGGGUGCCAA | 0.355
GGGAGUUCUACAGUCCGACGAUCCUUCUGCACCAACUCACCUGGCCGCUAAGUUGCUGAUGGGUAGUACCUGUACUAAACCACCUCAGAAAGGAUUUUACAGAAACGUGUUAAAGGUUUUCUCUAACUUCUCAUGGAAUUCUCGGGUGCCAA | 0.245
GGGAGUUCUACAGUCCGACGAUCGAGUUGUGAGCUCUUCUUCUGUAGCCCUGAAGGGACACUGUAUUCUGUAUGAAUGCAUGGCAUGAGACAACUAAUUUAAGAGACUUUUAUAAAUAAAGUUUGCAUUAACUUGGAAUUCUCGGGUGCCAA | 1.31
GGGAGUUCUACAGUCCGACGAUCAAUUGAUGUUCUUGCUUUGUGUUGUGUUCUGGUAAAGCUUUAAGUGAGUGUCUUACCCCUUUCCUAUACUUUCUUGUUAUCCAUAUCAUUCUUUUGUGAGUUUUGCAGCAUGGAAUUCUCGGGUGCCAA | 1.48

Study 2
Target: Sox-I, HMG box (Salpingoeca helianthica)
Method: Spec-seq
Form: double-stranded DNA, one strand shown
Medium: in vitro
Tested at: not given
Setting: whole probe, mean of replicates
Relative to: not given
Direction: lower = stronger binding
Shared flanks, not repeated: GAGTCGTCTCGTCAGCAC … CCGTAGAGCACTCAGGTC
Residues (chain): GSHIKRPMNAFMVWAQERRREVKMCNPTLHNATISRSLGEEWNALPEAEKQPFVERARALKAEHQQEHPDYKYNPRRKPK
Strand | relative binding energy [ln ratio]
CATTCTC | 0.164
CATGCTT | 0.81
CATCAGC | 1.08
GCGTGTT | 0.569
TCTCGTT | 0.347
CATTGCG | 0.879
ACAAGTT | -0.419
CATGTGG | 1.25
CATTAAC | 0.213
CATCCAA | 0.545
AAGTGTT | -0.27
CATTAAA | 0.402
TCATGTT | -0.0148
GTAGGTT | 0.992
GCTTGTT | -0.386
CTTTGTT | -2.8

Study 3
Target: Prothrombin, mature alpha-thrombin (F2, Homo sapiens, UniProt P00734)
Method: aptamer microarray, sandwich
Form: DNA with 2'F-ANA
Medium: in vitro
Tested at: 200 nM
Setting: whole 15-mer aptamer, many near background
Added: Cy3 exosite-II aptamer, 400 nM
Direction: higher = stronger binding
Strand: GGTTGGTGTGGTTGG
Modification | mean fluorescence intensity
2'F-ANA at 1 7 8 10 13 14 15 | 54.2 a.u.
2'F-ANA at 1 2 3 5 6 7 8 12 13 15 | 103 a.u.
2'F-ANA at 2 6 8 9 11 12 13 14 | 134 a.u.
2'F-ANA at 4 5 6 7 11 12 13 15 | 72.7 a.u.
2'F-ANA at 1 2 3 4 8 10 12 13 15 | 64.4 a.u.
2'F-ANA at 3 6 7 11 12 14 | 626 a.u.
2'F-ANA at 1 2 3 7 10 12 | 195 a.u.
2'F-ANA at 4 7 9 10 11 12 13 15 | 92 a.u.
2'F-ANA at 1 4 7 8 10 13 14 | 83.9 a.u.
2'F-ANA at 3 5 6 13 15 | 73.2 a.u.
2'F-ANA at 1 3 13 | 245 a.u.
2'F-ANA at 1 2 3 5 9 11 12 15 | 90 a.u.
2'F-ANA at 4 8 9 10 11 14 15 | 83.9 a.u.
2'F-ANA at 1 2 4 5 9 10 11 12 13 14 15 | 48.2 a.u.
2'F-ANA at 4 5 6 7 9 11 13 14 15 | 44.4 a.u.
2'F-ANA at 2 3 6 7 8 11 12 13 | 798 a.u.
2'F-ANA at 2 3 5 6 8 9 10 11 13 15 | 58.6 a.u.
2'F-ANA at 1 3 4 6 7 11 12 | 299 a.u.
2'F-ANA at 1 2 8 12 13 14 | 68.9 a.u.
2'F-ANA at 1 2 3 4 5 6 7 8 9 11 12 13 | 71.6 a.u.
2'F-ANA at 2 4 7 8 9 10 11 12 14 15 | 123 a.u.

Study 4
Target: Fragile X messenger ribonucleoprotein 1, C-terminal low-complexity region (Fmr1, Mus musculus, UniProt P35922)
Method: RNA Bind-n-Seq
Form: RNA
Medium: in vitro
Tested at: 200 nM
Setting: whole 134-nt RNA, ends assumed
Added: 150 mM LiCl
Relative to: input library
Direction: higher = stronger binding
Library: 7-deaza-guanosine replaces G
Strand | log2 enrichment
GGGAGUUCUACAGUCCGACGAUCUCCUCAAGUCCUGUGCUACACAUCGUAUGUACCGAAUCGGUGGUGGGGUGGGAAAGUAUUAUGUUACGCCGUUCGGAUCUGCACUUCCAGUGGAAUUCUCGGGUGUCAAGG | 1.03
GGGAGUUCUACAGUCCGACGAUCGCAGGAAGUAAAAACAAAUGGAAAUGCUUUGGAUAGUGGCAGGGGUGGGGGUUGCUAAGGAAAGGGUGGGAUGGGAGUGGGUAAAGAGUUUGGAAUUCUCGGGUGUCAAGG | 1.88
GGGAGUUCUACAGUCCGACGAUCUGGCCUUGGUGGCAUGCGGGGAGGAAGAGGUGGCCUCAUGGAUCGUGGUGGUCCCGGUGGAAUGUUCAGAGGUGGCCGUGGUGGAGACAGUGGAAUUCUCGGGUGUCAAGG | 0.772
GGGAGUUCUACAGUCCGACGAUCUGGGAGGUGGAUUUUGUUUAUUUUUUUAGCUCAUUUCCAGGGGUGGGAAUUUUUUUUUAAUAUGUGUCACGAAUAAAGUUGUUUUUGAAAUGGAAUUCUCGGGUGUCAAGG | 0.516
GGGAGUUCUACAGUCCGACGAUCAAGUCCUGUGCUACACAUCGUAUGUACCGAAUCGGGUGGGAAAAAAAGGGAAAGGGAAAGUAUUAUGUUACGCCGUUCGGAUCUGCACUUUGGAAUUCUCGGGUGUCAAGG | -0.129
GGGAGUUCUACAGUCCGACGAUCGCAGGAAGUAAAAACAAAUGGAAAUGCUUCGGAUAAUGGCAGGGGUGGGGGUUGCUAAGGAAAGGGUGGGAUGGGAGUGGGUAAAGAGUUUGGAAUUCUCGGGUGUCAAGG | 1.29
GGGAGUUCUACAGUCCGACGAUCUCCUGUGCUACACAUCGUAUGUACCGAAUCGGCCCCCCGGCCCCCCGGGGCCCCCCGGGAAAGUAUUAUGUUACGCCGUUCGGAUCUGCAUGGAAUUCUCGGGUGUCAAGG | 0.867
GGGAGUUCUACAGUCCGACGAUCCUCAAGUCCUGUGCUACACAUCGUAUGUACCGAAUCGGUUGGGGUUGGGUUGGAAAGUAUUAUGUUACGCCGUUCGGAUCUGCACUUCCAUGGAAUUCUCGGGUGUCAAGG | 0.124
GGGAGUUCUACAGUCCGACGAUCUGGGAGGGGGAUUUUGUUUAUUUUUUUAGCUCAUUUCCAGGGGUGGGAAUUUUUUUUUAAUAUGUGUCAUGAAUAAAGUUGUUUUUGAAAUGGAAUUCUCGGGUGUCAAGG | 0.0859
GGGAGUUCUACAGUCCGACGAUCUCAAGUCCUGUGCUACACAUCGUAUGUACCGAAUCGGCCCGGCCCGGGGCCCGGGAAAGUAUUAUGUUACGCCGUUCGGAUCUGCACUUCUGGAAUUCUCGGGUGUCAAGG | -1.36
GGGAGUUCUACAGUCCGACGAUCUCAAGUCCUGUGCUACACAUCGUAUGUACCGAAUCGGUGGAAAAAAAGGUUUGGAAAGUAUUAUGUUACGCCGUUCGGAUCUGCACUUCCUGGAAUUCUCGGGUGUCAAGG | -1.82

Excerpt of the above (study 3):
Modification | mean fluorescence intensity
2'F-ANA at 4 5 6 7 11 12 13 15 | 72.7 a.u.
2'F-ANA at 1 2 3 4 8 10 12 13 15 | 64.4 a.u.
2'F-ANA at 3 6 7 11 12 14 | 626 a.u.
